Published values pooled from the literature.
A part holds a random share of what one study measured. Several values in a cell are separate wells, animals, samples, runs or records.

Study 1 — cell line: U-87 MG; tested at: concentration not given; baseline: DMSO
Structure (SMILES): CCN1/C(=C/C=C2\CCCC(/C=C/C3=[N+](CC)c4ccccc4C3(C)C)=C2NCCCCCCCCN2CCC(Nc3nc4ccccc4n3Cc3ccc(F)cc3)CC2)C(C)(C)c2ccccc21
assay	log2 fold change
refers to: NFXL1 mRNA	0.966
refers to: TLR3 mRNA	-1.95
refers to: AGFG2 mRNA	-1.09
refers to: CCDC59 mRNA	0.99
refers to: COQ10B mRNA	1.36
refers to: CFAP73 mRNA	-3.48
refers to: CLEC11A mRNA	-1.16
refers to: LIN28B mRNA	-1.53
refers to: ASAP3 mRNA	-1.3
refers to: TICRR mRNA	-1.33
refers to: AKAP5 mRNA	-1.24
refers to: FAM20C mRNA	-2.53
refers to: TUFT1 mRNA	1.29
refers to: CCDC174 mRNA	1.14
refers to: FNIP2 mRNA	1.02
refers to: ANP32E mRNA	-1.41

Study 2
Compound: Cc1ccc(O)c(C)c1-c1cnc2[nH]c(-c3cnc(N)nc3)cc2c1C#N
PKMYT1: Membrane-associated tyrosine- and threonine-specific cdc2-inhibitory kinase (PKMYT1, Homo sapiens, UniProt Q99640)
Sequence of UniProt Q99640 (whole entry, looked up): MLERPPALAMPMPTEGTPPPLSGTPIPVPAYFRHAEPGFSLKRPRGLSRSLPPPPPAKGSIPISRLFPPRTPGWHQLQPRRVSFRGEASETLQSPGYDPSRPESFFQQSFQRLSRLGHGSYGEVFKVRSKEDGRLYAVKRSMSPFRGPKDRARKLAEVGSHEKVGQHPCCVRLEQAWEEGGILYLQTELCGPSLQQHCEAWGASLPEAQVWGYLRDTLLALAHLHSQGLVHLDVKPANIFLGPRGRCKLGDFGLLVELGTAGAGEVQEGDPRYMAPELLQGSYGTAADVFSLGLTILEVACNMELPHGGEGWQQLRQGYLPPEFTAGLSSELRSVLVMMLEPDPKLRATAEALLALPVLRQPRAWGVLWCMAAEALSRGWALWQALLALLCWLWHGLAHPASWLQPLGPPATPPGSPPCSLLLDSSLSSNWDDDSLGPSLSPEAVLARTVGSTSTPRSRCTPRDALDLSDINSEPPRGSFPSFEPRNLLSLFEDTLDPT
target or system	assay	setting	inhibition [%]
KLE	cell proliferation	30000 nM	79.6
HCC1569	automated capillary immunoblot, refers to: CDK1 phospho-Thr14	0.15 nM	2.75
HCC1569	cell proliferation	1.52 nM	1.36
HCC1806	cell proliferation	123.5 nM	26.2
HCC1569	cell proliferation	370.37 nM	54.1
HCC1569	cell proliferation	13.72 nM	-0.56
PKMYT1	cell-free assay, TR-FRET	12.35 nM	97.6
HuCCT-1	cell proliferation	13.72 nM	-2.54
HCC1569	cell proliferation	1111.11 nM	86.6
KLE	cell proliferation	123.5 nM	4.49
HCC1806	cell proliferation	3333.33 nM	97.2
HCC1806	cell proliferation	4.572 nM	8.9
HuCCT-1	cell proliferation	123.46 nM	5.67
HuCCT-1	cell proliferation	3333.33 nM	96.3
U-251 MG	cell growth	1.524 nM	3.58
PKMYT1	–	0.004115 µM	70.1
KLE	cell proliferation	13.72 nM	3.62

Study 3
Structure (SMILES): COc1cc(C(=O)OCCCN2CCCN(CCCOC(=O)c3cc(OC)c(OC)c(OCc4ccc([N+](=O)[O-])cc4)c3)CC2)cc(OC)c1OC
assay	test system	setting	paw withdrawal frequency
von Frey, 0.4 g filament	mouse, CFA inflammatory pain	subcutaneous, 10 mg/kg, 5 h post-dose, second injection, day 3	50% and 70% and 60% and 80%
von Frey test	mouse, CFA inflammatory pain	intrathecal, dose not given, 3 h, with: DPCPX 10 nmol intrathecal	40% and 60% and 30% and 50%
von Frey, 0.4 g filament	mouse, CFA inflammatory pain	intravenous, dose not given, 5 h post-dose, second injection, day 3	70% and 50% and 40% and 60%
von Frey test	mouse, spared nerve injury	intrathecal, 100 nmol, third of 3 doses, 1 h	0% and 30% and 20%
von Frey, 0.4 g filament	mouse, CFA inflammatory pain	subcutaneous, 10 mg/kg, 3 h post-dose, third injection, day 5	50% and 40%
von Frey, 0.4 g filament	mouse, CFA inflammatory pain	intravenous, dose not given, 1 h post-dose, second injection, day 3	40% and 20% and 30%
von Frey test	mouse, STZ diabetic neuropathy	subcutaneous, 30 mg/kg, second of three doses, 0 h	0.29 fraction of stimuli and 0.08 fraction of stimuli and 0.13 fraction of stimuli and 0.03 fraction of stimuli and 0.12 fraction of stimuli and 0.23 fraction of stimuli
von Frey, 0.4 g filament	mouse, CFA inflammatory pain	intravenous, baseline before CFA	0% and 10% and 20%
von Frey, 0.4 g filament	mouse, CFA inflammatory pain	subcutaneous, 10 mg/kg, 3 h post-dose, first injection, day 1	70% and 50% and 80%
von Frey, 0.4 g filament	mouse, CFA inflammatory pain	subcutaneous, 10 mg/kg, 24 h post-dose, second injection, day 3	70% and 80%
von Frey test	mouse, CFA inflammatory pain	intrathecal, dose not given, 5 h, with: DPCPX 10 nmol intrathecal	50% and 40% and 60%

Study 4 — observed: thermal unfolding; method: differential scanning fluorimetry; tested at: 5.5 µM; reading: higher = more unfolded
SMILES: C[C@@H]1CN(c2ccc(-c3cc(C(=O)NCCOCCOCCOCCOCCNC(=O)/C=C/c4[nH]cc(C(=O)N[C@@H](CC(N)=O)c5ccc(F)c(Cl)c5)c4-c4ccc(Cl)cc4F)ccc3F)cc2NC(=O)c2c[nH]c(=O)cc2C(F)(F)F)C[C@H](C)N1C
WDR5: WD repeat-containing protein 5 (WDR5, Homo sapiens, UniProt P61964)
DCAF1: DDB1- and CUL4-associated factor 1 (DCAF1, Homo sapiens, UniProt Q9Y4B6)
Sequence of UniProt Q9Y4B6 (whole entry, looked up): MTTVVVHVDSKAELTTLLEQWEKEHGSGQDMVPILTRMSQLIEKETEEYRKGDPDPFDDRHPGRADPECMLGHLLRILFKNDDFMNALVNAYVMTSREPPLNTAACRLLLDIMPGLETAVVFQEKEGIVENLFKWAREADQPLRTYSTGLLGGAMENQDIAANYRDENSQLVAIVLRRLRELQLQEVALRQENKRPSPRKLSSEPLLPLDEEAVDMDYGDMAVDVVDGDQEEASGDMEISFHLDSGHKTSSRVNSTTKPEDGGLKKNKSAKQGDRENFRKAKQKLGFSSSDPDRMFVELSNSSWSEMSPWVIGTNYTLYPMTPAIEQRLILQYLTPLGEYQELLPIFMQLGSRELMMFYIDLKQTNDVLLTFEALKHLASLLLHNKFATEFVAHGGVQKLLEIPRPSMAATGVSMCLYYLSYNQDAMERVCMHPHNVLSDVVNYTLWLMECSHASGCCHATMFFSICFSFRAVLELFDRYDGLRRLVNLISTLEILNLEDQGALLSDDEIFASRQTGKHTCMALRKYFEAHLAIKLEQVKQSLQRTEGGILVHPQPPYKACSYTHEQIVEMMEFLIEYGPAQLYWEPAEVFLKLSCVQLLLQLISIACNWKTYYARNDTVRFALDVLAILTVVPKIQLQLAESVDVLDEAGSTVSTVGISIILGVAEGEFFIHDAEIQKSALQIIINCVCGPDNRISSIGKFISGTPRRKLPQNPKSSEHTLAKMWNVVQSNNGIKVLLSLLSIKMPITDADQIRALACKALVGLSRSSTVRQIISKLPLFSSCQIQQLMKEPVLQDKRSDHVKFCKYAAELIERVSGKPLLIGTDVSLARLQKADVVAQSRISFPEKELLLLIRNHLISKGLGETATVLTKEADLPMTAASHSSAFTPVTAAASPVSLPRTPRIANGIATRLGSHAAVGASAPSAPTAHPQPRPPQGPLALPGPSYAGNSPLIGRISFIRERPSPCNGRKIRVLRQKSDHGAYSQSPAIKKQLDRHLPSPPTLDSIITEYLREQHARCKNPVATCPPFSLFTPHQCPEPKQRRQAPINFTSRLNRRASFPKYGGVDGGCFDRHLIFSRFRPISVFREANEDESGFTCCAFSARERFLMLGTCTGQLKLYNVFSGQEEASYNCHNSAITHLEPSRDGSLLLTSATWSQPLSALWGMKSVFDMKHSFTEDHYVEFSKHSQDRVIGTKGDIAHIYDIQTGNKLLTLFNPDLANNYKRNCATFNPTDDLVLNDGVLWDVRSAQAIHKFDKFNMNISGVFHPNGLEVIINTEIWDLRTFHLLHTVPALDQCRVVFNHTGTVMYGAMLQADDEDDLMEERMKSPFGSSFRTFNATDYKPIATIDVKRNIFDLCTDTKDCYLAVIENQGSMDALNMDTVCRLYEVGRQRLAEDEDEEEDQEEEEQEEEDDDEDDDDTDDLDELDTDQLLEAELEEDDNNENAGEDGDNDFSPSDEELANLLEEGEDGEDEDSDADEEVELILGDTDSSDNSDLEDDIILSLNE
target	setting	SYPRO Orange fluorescence
WDR5	54.81 °C	16800 a.u.
DCAF1	68.81 °C	57200 a.u.
WDR5	71.81 °C	19100 a.u.
WDR5	57.01 °C	16500 a.u.
WDR5	64.01 °C	14000 a.u.
WDR5	81.01 °C	43300 a.u.
WDR5	62.41 °C	14700 a.u.
DCAF1	94.61 °C	30100 a.u.
WDR5	64.81 °C	14000 a.u.
DCAF1	40.2 °C	11600 a.u.
DCAF1	86.41 °C	38500 a.u.

Study 5 — cell line: Gaucher fibroblasts L444P/L444P; method: 4-MUG hydrolysis, cell lysate; tested at: 10 µM; baseline: DMSO
SMILES	GCase activity
CCOc1ccc2nc(Sc3nc(N4CCOCC4)nc(N4CCOCC4)n3)sc2c1	125% and 111% and 92.6% and 121%
Ic1ccc(Nc2nc(N3CCOCC3)nc(N3CCOCC3)n2)cc1	52.2% and 197% and 182% and 202%
Ic1ccc(Nc2nc(NCCN3CCOCC3)nc(NC3CCCCC3)n2)cc1	99% and 91.1% and 91% and 94.8%
CCOc1ccc2nc(Sc3nc(Nc4ccc(OC)cc4)nc(N4CCOCC4)n3)sc2c1	223% and 248% and 238% and 227% and 214%
Fc1ccc(Nc2nc(NCCN3CCOCC3)nc(N3CCOCC3)n2)cc1	104% and 106% and 110% and 111% and 105%
Ic1ccc(Nc2nc(NCCN3CCOCC3)nc(N3CC4CCC(C3)O4)n2)cc1	103% and 134% and 110% and 138%
Ic1ccc(Nc2nc(NCCN3CCOCC3)nc(N3CCCC3)n2)cc1	104% and 101% and 91.9% and 86.6% and 93.7%

Study 6 — observed: kinase activity; mode: inhibitor; method: ADP-Glo; tested at: 0.0001 µM
Target: Cyclin-dependent kinase 12, with cyclin K (CDK12, Homo sapiens, UniProt Q9NYV4)
Sequence of UniProt Q9NYV4 (whole entry, looked up): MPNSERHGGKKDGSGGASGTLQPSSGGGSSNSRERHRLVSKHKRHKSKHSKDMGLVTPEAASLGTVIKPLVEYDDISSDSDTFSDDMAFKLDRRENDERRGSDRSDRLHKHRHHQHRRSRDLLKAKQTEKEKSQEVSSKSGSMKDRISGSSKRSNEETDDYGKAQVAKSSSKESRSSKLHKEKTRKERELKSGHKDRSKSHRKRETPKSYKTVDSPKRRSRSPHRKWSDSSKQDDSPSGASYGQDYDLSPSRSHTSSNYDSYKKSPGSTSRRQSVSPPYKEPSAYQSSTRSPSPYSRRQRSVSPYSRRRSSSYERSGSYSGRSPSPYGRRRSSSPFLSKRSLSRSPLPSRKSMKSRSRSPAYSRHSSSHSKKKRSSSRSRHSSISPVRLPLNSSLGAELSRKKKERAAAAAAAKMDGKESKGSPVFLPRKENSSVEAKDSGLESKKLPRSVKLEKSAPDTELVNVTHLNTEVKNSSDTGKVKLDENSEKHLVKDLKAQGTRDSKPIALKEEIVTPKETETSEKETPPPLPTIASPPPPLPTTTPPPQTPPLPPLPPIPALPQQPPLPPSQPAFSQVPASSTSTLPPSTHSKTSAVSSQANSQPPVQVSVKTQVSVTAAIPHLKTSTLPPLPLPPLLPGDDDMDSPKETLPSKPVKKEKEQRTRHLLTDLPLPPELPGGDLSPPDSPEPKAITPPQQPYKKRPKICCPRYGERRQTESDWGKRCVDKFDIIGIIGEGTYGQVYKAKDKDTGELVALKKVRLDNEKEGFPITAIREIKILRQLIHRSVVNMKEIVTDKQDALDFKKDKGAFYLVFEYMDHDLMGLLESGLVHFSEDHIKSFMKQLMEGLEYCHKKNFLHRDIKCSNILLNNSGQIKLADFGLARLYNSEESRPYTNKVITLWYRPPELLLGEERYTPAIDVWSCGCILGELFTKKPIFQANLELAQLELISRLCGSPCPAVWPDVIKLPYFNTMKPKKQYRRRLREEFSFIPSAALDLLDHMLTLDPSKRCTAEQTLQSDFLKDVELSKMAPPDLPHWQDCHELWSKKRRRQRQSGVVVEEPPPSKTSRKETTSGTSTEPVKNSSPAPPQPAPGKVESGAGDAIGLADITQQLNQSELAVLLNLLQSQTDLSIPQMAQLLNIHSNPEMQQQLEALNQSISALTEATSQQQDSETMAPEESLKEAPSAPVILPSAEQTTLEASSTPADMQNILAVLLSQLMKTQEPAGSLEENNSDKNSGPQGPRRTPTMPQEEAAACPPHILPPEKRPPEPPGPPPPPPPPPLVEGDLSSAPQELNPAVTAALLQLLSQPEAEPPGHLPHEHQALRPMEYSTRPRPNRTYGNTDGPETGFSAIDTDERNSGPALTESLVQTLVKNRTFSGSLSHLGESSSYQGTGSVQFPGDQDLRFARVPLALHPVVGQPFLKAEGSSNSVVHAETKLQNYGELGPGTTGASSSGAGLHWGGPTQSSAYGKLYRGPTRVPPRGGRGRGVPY
Compound	inhibition [%]
CCn1cnc2c(NCc3nc4cc(F)c(F)cc4[nH]3)nc(N3CCn4ncnc4C3)nc21	11.5
CCn1cnc2c(NCc3nc4cc(Cl)c(Cl)cc4[nH]3)nc(N3CCN(C(=O)c4ccccn4)CC3)nc21	-5.7
CCn1cnc2c(NCc3nc4cc(Cl)c(Cl)cc4[nH]3)nc(N3CCN(C(C)=O)CC3)nc21	9.5
CCn1cnc2c(NCc3nc4cc(Cl)c(Cl)cc4[nH]3)nc(N3CCN(C(=O)[C@H](C)NC(C)=O)CC3)nc21	-17
CCn1cnc2c(NCc3nc4cc(Cl)c(Cl)cc4[nH]3)nc(N3CCN(S(C)(=O)=O)CC3)nc21	-7.9
CCn1cnc2c(NCc3nc4cc(Cl)c(Cl)cc4[nH]3)nc(N3CCC(NC(C)=O)CC3)nc21	1.8
CC(=O)N1CCN(c2nc(NCc3nc4cc(Cl)c(Cl)cc4[nH]3)c3ncn(C)c3n2)CC1	-3.9
CCn1cnc2c(NCc3nc4cc(Cl)c(Cl)cc4[nH]3)nc(N3CCn4ncnc4C3)nc21	10.7
CC(=O)N1CCN(c2nc(NCc3nc4cc(Cl)c(Cl)cc4[nH]3)c3ncn(-c4cnn(C)c4)c3n2)CC1	-2.1

Study 7
SMILES: CCN1C(=O)C(O)(C(=O)O)Oc2cc(F)ccc21 (stereo not shown)
organism	assay	test system	setting	scale	inhibition
Triticum aestivum	fresh weight	–	soil surface spray, 150 g ai/ha, 21 days, pre-emergence crop safety	–	0.8% and 0.7% and 0.9%
Arabidopsis thaliana	root length	Col-0, seedlings	6.25 µg/mL	–	17%
Arabidopsis thaliana	root length	Col-0	100 µg/mL, 7 days, seed germination, dark	–	72.4%
Arabidopsis thaliana	root length	Col-0	6.25 µg/mL, 7 days, seed germination, dark	–	17%
Zea mays	fresh weight	–	soil surface spray, 150 g ai/ha, 21 days, pre-emergence crop safety	–	5.5% and 5.4% and 4.1%
Arabidopsis thaliana	root length	Col-0	25.0 µg/mL, 7 days, seed germination, dark	–	36.4%
Arabidopsis thaliana	root length	Col-0, seedlings	100 µg/mL	–	72.4%
Arabidopsis thaliana	root length	Col-0, seedlings	12.5 µg/mL	baseline: water control	29.7%
Echinochloa crus-galli	fresh weight	–	150 g ai/ha, post-emergence treatment	–	51.3% and 47.7% and 49.1%
Alopecurus aequalis	fresh weight	–	150 g ai/ha, pre-emergence treatment	–	48.2% and 40.8% and 41.5%
Setaria viridis	fresh weight	–	150 g ai/ha, pre-emergence treatment	–	33.1% and 34.6% and 29.2%
Arabidopsis thaliana	root length	Col-0	50.0 µg/mL, 7 days, seed germination, dark	–	42.6%

Single results of other studies
Structure (SMILES)	target or system	assay	test system	setting	scale	endpoint	result
Cc1ncsc1-c1ccc(C(CO)NC(=O)C2CC(O)CN2C(=O)C(NC(=O)c2ccc(COc3c(-c4c(C)c(F)cc5[nH]ncc45)c(C4CC4)cc4c(N5CC6CC5CN6)nc(OC5CCOCC5)nc34)cc2)C(C)C)cc1 (stereo not shown)	von Hippel-Lindau disease tumor suppressor, with Elongin B/C (VHL, Homo sapiens, UniProt P40337)	SPR, single-cycle	immobilized VCB complex	binary, geometric mean	–	Kd	113 nM
Cc1nc(C)c(C=[N+]([O-])C(C)(C)C)nc1C	–	immunofluorescence, refers to: 3-nitrotyrosine	mouse, MPTP model, substantia nigra	30 mg/kg	baseline: sham mice	fluorescence intensity	225% and 208%
Cc1ncsc1-c1ccc(C2(NC(=O)C3CC(O)CN3C(=O)C(NC(=O)c3ccc(COc4c(-c5c(C)c(F)cc6[nH]ncc56)c(C5CC5)cc5c(N6CC7CC6CN7)nc(OC6CCOCC6)nc45)cc3)C(C)C)CC2)cc1 (stereo not shown)	AsPC-1	in-cell ELISA	–	10 nM, individual replicates	–	phospho-ERK1/2 level	107% and 99.2% and 101% and 102% and 85.7%
Cc1ncsc1-c1ccc(C(CO)NC(=O)C2CC(O)CN2C(=O)C(C(C)C)n2cc(-c3ccc(COc4c(-c5c(C)c(F)cc6[nH]ncc56)c(C5CC5)cc5c(N6CC7CC6CN7)nc(OC6CCOCC6)nc45)cc3)nn2)cc1 (stereo not shown)	AsPC-1	in-cell ELISA, refers to: phospho-ERK1/2	–	3 nM	–	ERK1/2 phosphorylation	82.5% and 87.1% and 84.3%
CCN1CCN(Cc2ccc(COc3c(-c4c(C)c(F)cc5[nH]ncc45)c(C4CC4)cc4c(N5C[C@@H]6C[C@H]5CN6)nc(OC5CCOCC5)nc34)cc2)C(=O)C1	GTPase KRas, GDP-bound (KRAS, Homo sapiens, UniProt P01116, G12D)	SPR, multi-cycle	immobilized KRAS G12D	binary, geometric mean	–	koff	0.00387 s⁻¹

Excerpt of the above (study 5):
SMILES	GCase activity
Ic1ccc(Nc2nc(NCCN3CCOCC3)nc(N3CC4CCC(C3)O4)n2)cc1	103% and 134% and 110% and 138%
CCOc1ccc2nc(Sc3nc(N4CCOCC4)nc(N4CCOCC4)n3)sc2c1	125% and 111% and 92.6% and 121%
CCOc1ccc2nc(Sc3nc(Nc4ccc(OC)cc4)nc(N4CCOCC4)n3)sc2c1	223% and 248% and 238% and 227% and 214%
Ic1ccc(Nc2nc(N3CCOCC3)nc(N3CCOCC3)n2)cc1	52.2% and 197% and 182% and 202%
Ic1ccc(Nc2nc(NCCN3CCOCC3)nc(NC3CCCCC3)n2)cc1	99% and 91.1% and 91% and 94.8%
Ic1ccc(Nc2nc(NCCN3CCOCC3)nc(N3CCCC3)n2)cc1	104% and 101% and 91.9% and 86.6% and 93.7%
Fc1ccc(Nc2nc(NCCN3CCOCC3)nc(N3CCOCC3)n2)cc1	104% and 106% and 110% and 111% and 105%
